# Measured values pooled from the literature.
# Protocols differ between the studies behind these lines.
SMILES,test system,conditions,measurement,result
FC(F)(F)Oc1ccc2[nH]c(-c3ccc(OCCN4CCOCC4)cn3)nc2c1,"mouse, plasma","intraperitoneal, 100 mg/kg",MRT,1.24 h
Cc1cc(NCC(=O)C(C)C)c2nc(N3CCOC[C@H]3C)cc(=O)n2c1,"C57BL/6 mouse, plasma","intraperitoneal, 10 mg/kg, single dose",MRT(0-t),0.88 h
O=C(O)c1ccc(/C=C2\SC(=S)N(Cc3cccc(C(F)(F)F)c3)C2=O)cc1,"C57BL/6 mouse, blood","intravenous, 5 mg/kg",MRT(0-inf),0.53 h
CCOC(=O)c1nc2cc(Cl)c(Cl)cc2nc1N1CCN(C(=O)Nc2ccc(N3CCNCC3)cc2)CC1,"male mouse, plasma","intravenous, 3 mg/kg",MRT(0-inf),5.36 h
COc1cc(OCCN2CCOCC2)cnc1-c1nc2cc(OC(F)(F)F)ccc2[nH]1,"mouse, plasma","oral, 100 mg/kg",MRT,3.01 h
COc1ccccc1/C=C/CNCC(O)COc1ccc(Nc2ccccc2)cc1 (racemic),"mouse, plasma","oral, 10 mg/kg",MRT(0-inf),0.94 h
O=C1CCC(N2C(=O)c3ccc(N4CCC(C(=O)N5CCC(CCN6CCC(CNC(=O)c7cccc(-c8noc(C(F)(F)F)n8)c7)(c7nc(-c8ccccc8)cs7)CC6)CC5)CC4)cc3C2=O)C(=O)N1 (centres unmarked),"CD-1 mouse, plasma","intraperitoneal, 30 mg/kg",MRT,5.49 h
CCn1cc(-c2cc(Cn3ccnc3)cc3c2CCN([C@H](c2cc(OC)ccn2)C2CC2)C3=O)c(C(F)(F)F)n1,"male CD-1 mouse, plasma","intravenous, 3 mg/kg",MRT(0-inf),0.6 h
CC[C@H](C)[C@H](NC(=O)[C@H](Cc1ccccc1)NC(=O)[C@H](CCC(=O)O)NC(=O)[C@H](CCCCN)NC(=O)[C@H](C)NC(=O)[C@H](C)NC(=O)[C@H](CCC(N)=O)NC(=O)CNC(=O)[C@H](CCC(=O)O)NC(=O)[C@H](CC(C)C)NC(=O)[C@H](Cc1ccc(O)cc1)NC(=O)[C@H](CO)NC(=O)[C@H](CO)NC(=O)[C@@H](NC(=O)[C@H](CC(=O)O)NC(=O)[C@H](CO)NC(=O)[C@@H](NC(=O)[C@H](Cc1ccccc1)NC(=O)[C@@H](NC(=O)CNC(=O)[C@H](CCC(=O)O)NC(=O)[C@H](C)NC(=O)[C@@H](N)Cc1c[nH]cn1)[C@@H](C)O)[C@@H](C)O)C(C)C)C(=O)N[C@@H](C)C(=O)N[C@@H](Cc1c[nH]c2ccccc12)C(=O)N[C@@H](CC(C)C)C(=O)N[C@H](C(=O)N[C@@H](CCCNC(=N)N)C(=O)NCC(=O)N[C@@H](CCCNC(=N)N)C(=O)NCC(=O)O)C(C)C,"male CD-1 mouse, plasma","intravenous, 1 mg/kg, single dose",MRT,0.21 h
COc1cnc2cccc(N3CCc4c(cc(Cn5ccnc5)cc4-c4cn(C)nc4C(F)(F)F)C3=O)c2c1,"male CD-1 mouse, plasma","intraperitoneal, 100 mg/kg",MRT(0-inf),4.3 h
C[C@@H](Nc1nc2c(cnn2C(C)(C)C)c(=O)n1Cc1cccc(F)c1)c1ccc(Cl)cc1,"C57BL/6 mouse, plasma","oral, 5 mg/kg",MRT(0-inf),7.34 h
